# Published values gathered from unrelated publications.
# Lines come from different studies, so protocols differ. Numbers after ± are the reported error.
# Isochorismatase domain-containing protein 1: Isochorismatase domain-containing protein 1 (Homo sapiens, UniProt Q96CN7)
# Chain of UniProt Q96CN7 (whole entry, looked up): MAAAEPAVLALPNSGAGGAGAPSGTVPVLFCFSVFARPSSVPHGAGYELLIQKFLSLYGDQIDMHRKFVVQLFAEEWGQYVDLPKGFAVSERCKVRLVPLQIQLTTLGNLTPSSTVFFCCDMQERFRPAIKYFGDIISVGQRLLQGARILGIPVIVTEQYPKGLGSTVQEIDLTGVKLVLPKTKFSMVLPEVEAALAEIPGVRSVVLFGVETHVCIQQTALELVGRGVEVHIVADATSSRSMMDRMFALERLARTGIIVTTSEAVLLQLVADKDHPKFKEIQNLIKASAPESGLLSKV
# Chain of UniProt Q147X3 (whole entry, looked up): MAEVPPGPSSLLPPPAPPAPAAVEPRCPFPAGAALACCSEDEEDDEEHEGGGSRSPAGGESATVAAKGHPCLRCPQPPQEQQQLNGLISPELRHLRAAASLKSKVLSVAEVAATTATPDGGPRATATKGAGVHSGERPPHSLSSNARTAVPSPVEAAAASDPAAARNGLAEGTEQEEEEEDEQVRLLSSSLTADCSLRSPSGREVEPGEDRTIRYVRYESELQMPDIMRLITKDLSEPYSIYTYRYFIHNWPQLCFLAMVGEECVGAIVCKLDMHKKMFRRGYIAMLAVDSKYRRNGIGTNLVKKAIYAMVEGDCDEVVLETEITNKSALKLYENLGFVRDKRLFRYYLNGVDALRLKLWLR
# Chain of UniProt O60674 (whole entry, looked up): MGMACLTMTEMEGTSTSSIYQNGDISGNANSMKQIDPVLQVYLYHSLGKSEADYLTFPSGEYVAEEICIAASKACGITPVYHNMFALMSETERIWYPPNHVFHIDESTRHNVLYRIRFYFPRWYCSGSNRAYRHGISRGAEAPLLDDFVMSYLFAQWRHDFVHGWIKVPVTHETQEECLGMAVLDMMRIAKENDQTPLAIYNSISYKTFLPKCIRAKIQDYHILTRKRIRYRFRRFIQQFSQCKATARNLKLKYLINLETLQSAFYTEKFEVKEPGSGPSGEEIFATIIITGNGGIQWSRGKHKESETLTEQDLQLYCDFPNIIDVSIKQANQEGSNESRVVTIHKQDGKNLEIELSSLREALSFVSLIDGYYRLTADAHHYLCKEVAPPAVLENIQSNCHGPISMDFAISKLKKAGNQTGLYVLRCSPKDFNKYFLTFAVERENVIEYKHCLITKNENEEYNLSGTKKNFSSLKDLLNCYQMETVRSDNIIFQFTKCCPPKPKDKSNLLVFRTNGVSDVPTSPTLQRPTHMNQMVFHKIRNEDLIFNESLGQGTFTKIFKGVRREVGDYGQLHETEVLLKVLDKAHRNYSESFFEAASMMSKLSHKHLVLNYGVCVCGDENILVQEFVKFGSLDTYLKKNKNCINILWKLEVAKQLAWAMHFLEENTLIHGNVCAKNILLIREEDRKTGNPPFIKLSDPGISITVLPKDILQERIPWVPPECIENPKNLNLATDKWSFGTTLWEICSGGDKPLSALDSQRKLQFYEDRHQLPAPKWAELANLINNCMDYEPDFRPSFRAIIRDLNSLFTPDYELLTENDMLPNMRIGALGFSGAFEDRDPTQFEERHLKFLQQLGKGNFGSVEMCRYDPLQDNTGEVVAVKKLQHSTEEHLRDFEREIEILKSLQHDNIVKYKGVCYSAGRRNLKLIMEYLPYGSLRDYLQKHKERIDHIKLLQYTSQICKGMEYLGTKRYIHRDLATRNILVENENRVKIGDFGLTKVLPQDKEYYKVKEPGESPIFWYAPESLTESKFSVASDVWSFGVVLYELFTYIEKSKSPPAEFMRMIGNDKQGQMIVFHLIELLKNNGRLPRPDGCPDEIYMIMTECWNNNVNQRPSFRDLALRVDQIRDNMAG
# Chain of UniProt P07339 (whole entry, looked up): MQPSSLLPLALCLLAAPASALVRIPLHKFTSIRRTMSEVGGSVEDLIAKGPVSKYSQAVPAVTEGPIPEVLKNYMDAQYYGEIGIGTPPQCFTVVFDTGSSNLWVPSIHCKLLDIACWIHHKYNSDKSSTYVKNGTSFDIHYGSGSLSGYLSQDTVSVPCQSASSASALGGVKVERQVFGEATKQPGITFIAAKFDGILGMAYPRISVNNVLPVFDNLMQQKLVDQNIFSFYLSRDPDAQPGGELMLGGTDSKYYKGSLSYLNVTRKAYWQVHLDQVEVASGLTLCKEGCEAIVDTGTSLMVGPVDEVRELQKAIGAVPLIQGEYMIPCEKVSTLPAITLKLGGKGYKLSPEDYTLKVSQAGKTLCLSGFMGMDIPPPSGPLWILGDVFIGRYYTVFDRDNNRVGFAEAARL
# Chain of UniProt Q12805 (whole entry, looked up): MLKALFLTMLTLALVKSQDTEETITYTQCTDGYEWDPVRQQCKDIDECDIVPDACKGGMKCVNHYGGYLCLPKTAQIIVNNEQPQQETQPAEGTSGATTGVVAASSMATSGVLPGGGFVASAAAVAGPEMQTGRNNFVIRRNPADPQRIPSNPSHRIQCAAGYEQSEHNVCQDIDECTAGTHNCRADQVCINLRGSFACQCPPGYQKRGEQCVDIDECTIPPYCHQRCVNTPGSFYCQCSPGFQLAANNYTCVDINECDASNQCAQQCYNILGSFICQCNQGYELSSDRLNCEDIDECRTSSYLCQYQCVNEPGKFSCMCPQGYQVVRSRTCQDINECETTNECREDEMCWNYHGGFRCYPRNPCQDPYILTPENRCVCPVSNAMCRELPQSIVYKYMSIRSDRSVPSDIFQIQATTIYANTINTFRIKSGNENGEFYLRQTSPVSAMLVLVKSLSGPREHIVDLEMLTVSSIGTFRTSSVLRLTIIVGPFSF
# Chain of UniProt P40261 (whole entry, looked up): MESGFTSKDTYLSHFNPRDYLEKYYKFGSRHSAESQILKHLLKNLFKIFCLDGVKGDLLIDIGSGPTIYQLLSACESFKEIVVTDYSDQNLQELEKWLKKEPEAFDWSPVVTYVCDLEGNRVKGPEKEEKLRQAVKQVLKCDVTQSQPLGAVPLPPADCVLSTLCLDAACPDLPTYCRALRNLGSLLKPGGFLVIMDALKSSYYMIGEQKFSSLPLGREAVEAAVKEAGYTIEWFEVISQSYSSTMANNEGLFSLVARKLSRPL
# Chain of UniProt P12710 (whole entry, looked up): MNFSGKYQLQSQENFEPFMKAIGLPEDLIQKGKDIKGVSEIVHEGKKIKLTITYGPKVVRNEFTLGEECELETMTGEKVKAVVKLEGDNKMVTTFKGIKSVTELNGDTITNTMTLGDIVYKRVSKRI
# Chain of UniProt P83111 (whole entry, looked up): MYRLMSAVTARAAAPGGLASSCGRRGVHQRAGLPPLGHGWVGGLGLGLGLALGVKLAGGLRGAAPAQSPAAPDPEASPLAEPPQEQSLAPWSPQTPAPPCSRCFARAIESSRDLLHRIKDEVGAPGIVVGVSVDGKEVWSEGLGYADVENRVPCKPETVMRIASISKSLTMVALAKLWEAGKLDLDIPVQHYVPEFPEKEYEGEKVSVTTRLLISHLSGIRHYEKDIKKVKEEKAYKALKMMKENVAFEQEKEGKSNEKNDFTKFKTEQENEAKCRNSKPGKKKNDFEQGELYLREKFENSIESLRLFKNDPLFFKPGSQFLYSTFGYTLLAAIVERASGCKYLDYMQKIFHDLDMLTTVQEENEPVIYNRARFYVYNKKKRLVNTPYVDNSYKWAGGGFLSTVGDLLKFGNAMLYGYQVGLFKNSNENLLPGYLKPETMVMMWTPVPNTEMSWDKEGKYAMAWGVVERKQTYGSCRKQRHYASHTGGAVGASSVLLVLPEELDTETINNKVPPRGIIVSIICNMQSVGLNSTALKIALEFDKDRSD
# Chain of UniProt P02754 (whole entry, looked up): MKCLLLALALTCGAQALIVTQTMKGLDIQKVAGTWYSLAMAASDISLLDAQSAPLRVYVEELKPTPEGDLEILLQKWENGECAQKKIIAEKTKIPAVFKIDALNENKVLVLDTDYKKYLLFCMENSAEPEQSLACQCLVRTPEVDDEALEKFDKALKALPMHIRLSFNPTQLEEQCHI
Structure (SMILES),target,test,test system,setting,Kd [µM]
CN1CCc2c(c3ccccc3n2Cc2ccc(C(=O)NO)cc2)C1,Isochorismatase domain-containing protein 1,"inhibitor, competition pulldown",SW620 and MV4-11 lysate,1 h,> 30.2
NC(=O)c1cccnc1,"Nicotinamide N-methyltransferase, SAM-bound (NNMT, Homo sapiens, UniProt P40261)","substrate, SPR",,"20 °C, together with: SAM",31.6
C#Cc1cccc(Nc2ncnc3cc(OC)c(OCCCCCCC(=O)NO)cc23)c1,Isochorismatase domain-containing protein 1,"inhibitor, competition pulldown",SW620 and MV4-11 lysate,1 h,> 30.2
Nc1ncnc2c1ncn2[C@@H]1O[C@H](COP(=O)(O)OP(=O)(O)NP(=O)(O)O)[C@@H](O)[C@H]1O,"Cell cycle histidine kinase CckA, CA domain (Caulobacter vibrioides, UniProt Q9X688)",isothermal titration calorimetry,Caulobacter crescentus,"12 °C, together with: without c-di-GMP",12
CCCN1CCN(c2ccc(-c3cncc(Cl)c3N3CCC4(CCNC4=O)CC3)cc2)CC1,"LACTB (Homo sapiens, UniProt P83111)",SILAC displacement,LS174T-L5 cell lysate,,15.6
CC(C)(COP(=O)(O)OP(=O)(O)OC[C@H]1O[C@@H](n2cnc3c(N)ncnc32)[C@H](O)[C@@H]1OP(=O)(O)O)[C@@H](O)C(=O)NCCC(=O)NCCS,"N-alpha-acetyltransferase 30 (NAA30, Homo sapiens, UniProt Q147X3)","competitor, competition MS pulldown",SW-620 cell lysate,together with: photo-immobilized beads,5.23
CC1=C[C@H](O)CC(C)(C)[C@H]1/C=C/C(C)=C/C=C/C(C)=C/C=C/C=C(C)/C=C/C=C(C)/C=C/C1=C(C)C[C@@H](O)CC1(C)C,"Beta-lactoglobulin (LGB, Bos taurus, UniProt P02754)","binding, fluorescence quenching",PBS,"30 min, 308 K",4810
[Ca+2].[Cl-].[Cl-],mutant huntingtin exon 1,"calmodulin binding disruption, AlphaScreen",,,2 ± 0.4
Cc1[nH]c2ccccc2c1CCNCc1ccc(/C=C/C(=O)NO)cc1,Isochorismatase domain-containing protein 1,"inhibitor, competition pulldown",SW620 and MV4-11 lysate,1 h,> 30.2
CC(C)(Oc1ccc(C(=O)c2ccc(Cl)cc2)cc1)C(=O)O,"Fatty acid-binding protein, liver (Mus musculus, UniProt P12710)",native MS,"mouse liver sample, 2-fold diluted",charge state 7+,41.5 ± 6.1
CC(C)CC(=O)N[C@H](C(=O)N[C@H](C(=O)N[C@@H](CC(C)C)[C@@H](O)CC(=O)N[C@@H](C)C(=O)N[C@@H](CC(C)C)[C@@H](O)CC(=O)NCCCC[C@H](NC(=O)CCOCCOCCNC(=O)CN1CCN(CC(=O)O)CCN(CC(=O)O)CC1)C(=O)O)C(C)C)C(C)C,"Cathepsin D (CTSD, Homo sapiens, UniProt P07339)","binding, SPR",,,0.65
CCCCN(Cc1ccc(C(=O)NO)cc1)C(=O)Nc1ccccc1,Isochorismatase domain-containing protein 1,"inhibitor, competition pulldown",SW620 and MV4-11 lysate,1 h,> 30.2
Cc1cc2nc3c(=O)[nH]c(=O)nc-3n(C[C@H](O)[C@H](O)[C@H](O)COP(=O)(O)OP(=O)(O)OC[C@H]3O[C@@H](n4cnc5c(N)ncnc54)[C@H](O)[C@@H]3O)c2cc1C,"EGF-containing fibulin-like extracellular matrix protein 1 (EFEMP1, Homo sapiens, UniProt Q12805)","binding, MS pulldown competition",SW-620 cell lysate,,68.5
CC[C@H](C)[C@H](NC(=O)[C@H](CC(C)C)NC(=O)[C@H](Cc1ccc(OP(=O)(O)O)cc1)NC(=O)[C@H](CCC(=O)O)NC(=O)[C@H](CC(=O)O)NC(=O)[C@H](C)NC(=O)[C@H](CC(=O)O)NC(=O)[C@@H](NC(=O)[C@@H](NC(=O)[C@H](CC(=O)O)NC(=O)[C@H](CC(=O)O)NC(=O)[C@H](CCSC)NC(=O)c1ccc2c(c1)C(=O)OC21c2ccc(N(C)C)cc2Oc2cc(N(C)C)ccc21)C(C)C)C(C)C)C(=O)N1CCC[C@H]1C(=O)N[C@@H](CCC(N)=O)C(=O)N[C@@H](CCC(N)=O)C(=O)NCC(=O)N[C@@H](Cc1ccccc1)C(=O)N[C@@H](CC(=O)O)C(=O)O,"Tyrosine-protein kinase JAK2, SH2 domain (JAK2, Homo sapiens, UniProt O60674)",binding,,,1.94

# A few entries again:
Structure (SMILES),target,test,test system,setting,Kd [µM]
[Ca+2].[Cl-].[Cl-],mutant huntingtin exon 1,"calmodulin binding disruption, AlphaScreen",,,2 ± 0.4
